Experimental data collected from several papers.
Parts stem from different laboratories: compare values within a part only.

Set 1
Target: Histone acetyltransferase KAT6A, winged helix 1, GST fusion (KAT6A, Homo sapiens, UniProt Q92794, residues 1-85)
Method: protein binding microarray
Molecule type: double-stranded DNA, one strand shown
Sample: in vitro
Tested at: not given
Notes: 8-mer, flanks averaged, mean of 2 arrays, mostly near background
Baseline: not given
Reading: higher = stronger binding
Residues (chain): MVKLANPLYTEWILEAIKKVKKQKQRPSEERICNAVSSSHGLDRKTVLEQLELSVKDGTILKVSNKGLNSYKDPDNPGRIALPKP
| Strand | E-score |
| --- | --- |
| CAAGGTGC | 0.029 |
| TATACCGA | 0.0639 |
| ATGGCTTG | -0.0526 |
| GGCGGTGA | 0.266 |
| AATTAGGC | -0.102 |

Set 2
Target: Ras GTPase-activating protein-binding protein 1, full length (G3BP1, Homo sapiens, UniProt Q13283)
UniProt Q13283, sequence (whole entry, looked up): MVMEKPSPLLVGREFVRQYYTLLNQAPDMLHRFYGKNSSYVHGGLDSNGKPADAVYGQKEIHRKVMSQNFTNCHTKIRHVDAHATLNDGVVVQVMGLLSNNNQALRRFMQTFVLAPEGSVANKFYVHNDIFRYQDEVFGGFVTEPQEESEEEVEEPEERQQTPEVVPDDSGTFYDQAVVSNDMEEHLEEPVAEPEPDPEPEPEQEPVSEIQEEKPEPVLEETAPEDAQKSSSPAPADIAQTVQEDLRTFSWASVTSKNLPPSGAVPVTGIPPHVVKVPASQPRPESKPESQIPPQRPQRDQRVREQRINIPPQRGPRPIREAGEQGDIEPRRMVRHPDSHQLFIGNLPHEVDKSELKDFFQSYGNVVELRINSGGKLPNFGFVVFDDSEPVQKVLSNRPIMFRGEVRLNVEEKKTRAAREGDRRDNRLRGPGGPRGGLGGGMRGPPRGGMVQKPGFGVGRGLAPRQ
Method: RNA Bind-n-Seq
Molecule type: RNA
Sample: in vitro
Tested at: 200 nM
Notes: whole 134-nt RNA, ends assumed
Together with: 150 mM KCl
Baseline: input library
Reading: higher = stronger binding
| Strand | log2 enrichment |
| --- | --- |
| GGGAGUUCUACAGUCCGACGAUCUCAAGUCCUGUGCUACACAUCGUAUGUACCGAAUCGGGCCGGGCCGGGGCCGGGGAAAGUAUUAUGUUACGCCGUUCGGAUCUGCACUUCUGGAAUUCUCGGGUGUCAAGG | 0.266 |
| GGGAGUUCUACAGUCCGACGAUCCAAGUCCUGUGCUACACAUCGUAUGUACCGAAUCGGGAAAGGGGAAAGGGAAAGGGAAAGUAUUAUGUUACGCCGUUCGGAUCUGCACUUUGGAAUUCUCGGGUGUCAAGG | 0.56 |
| GGGAGUUCUACAGUCCGACGAUCUGGCCAUGGUGGCAUGCGGGGAGGAAGAGGUGGCCUCAUGGAUCGUGGUGGUCCCGGUGGAAUGUUCAGAGGUGGCCGUGGUGGAGACAGUGGAAUUCUCGGGUGUCAAGG | 0.378 |
| GGGAGUUCUACAGUCCGACGAUCUCCUGUGCUACACAUCGUAUGUACCGAAUCGGGGAAAGGGGUUUGGGGUUUUUUUGGGGAAAGUAUUAUGUUACGCCGUUCGGAUCUGCAUGGAAUUCUCGGGUGUCAAGG | 0.752 |

Set 3
Target: Prothrombin, mature alpha-thrombin (F2, Homo sapiens, UniProt P00734)
Method: aptamer microarray, sandwich
Molecule type: DNA with 2'F-ANA
Sample: in vitro
Tested at: 200 nM
Notes: whole 15-mer aptamer, many near background
Together with: Cy3 exosite-II aptamer, 400 nM
Reading: higher = stronger binding
Strand: GGTTGGTGTGGTTGG
| Modification | mean fluorescence intensity |
| --- | --- |
| 2'F-ANA at 2 3 12 | 1080 a.u. |
| 2'F-ANA at 1 3 8 13 14 15 | 87.5 a.u. |
| 2'F-ANA at 2 5 6 7 8 10 11 13 15 | 69.1 a.u. |
| 2'F-ANA at 1 2 5 6 12 15 | 104 a.u. |
| 2'F-ANA at 1 2 3 4 7 9 10 14 15 | 64.8 a.u. |

Single results of other studies
| Substance | target | assay | test system | setting | how to read | measurement | value |
| --- | --- | --- | --- | --- | --- | --- | --- |
| PhoQ, residues 284 288 289 292 302 303 SLSVQF | PhoP, residues 12 14 15 18 19 LWHCS (Escherichia coli, UniProt P23836) | Sort-seq, refers to: YFP reporter | E. coli | PhoQ-PhoP variant library, together with: 10 µM Mg2+ | baseline: high Mg2+ state, higher = stronger signaling | fold induction | 4.7 |

For quick reference, copied from above (set 1):
| Strand | E-score |
| --- | --- |
| ATGGCTTG | -0.0526 |
| GGCGGTGA | 0.266 |
